Published values pooled from the literature.
Each line is one published result; not all experiments were run side by side. Values joined by “and” are separate records of one study, mostly repeats; a detail may differ. ± gives the spread as reported.
Phosphatidylinositol 3-kinase regulatory subunit beta SH2 domain: Phosphatidylinositol 3-kinase regulatory subunit beta, SH2 domain (Homo sapiens, UniProt O00459)
UniProt O00459, sequence (whole entry, looked up): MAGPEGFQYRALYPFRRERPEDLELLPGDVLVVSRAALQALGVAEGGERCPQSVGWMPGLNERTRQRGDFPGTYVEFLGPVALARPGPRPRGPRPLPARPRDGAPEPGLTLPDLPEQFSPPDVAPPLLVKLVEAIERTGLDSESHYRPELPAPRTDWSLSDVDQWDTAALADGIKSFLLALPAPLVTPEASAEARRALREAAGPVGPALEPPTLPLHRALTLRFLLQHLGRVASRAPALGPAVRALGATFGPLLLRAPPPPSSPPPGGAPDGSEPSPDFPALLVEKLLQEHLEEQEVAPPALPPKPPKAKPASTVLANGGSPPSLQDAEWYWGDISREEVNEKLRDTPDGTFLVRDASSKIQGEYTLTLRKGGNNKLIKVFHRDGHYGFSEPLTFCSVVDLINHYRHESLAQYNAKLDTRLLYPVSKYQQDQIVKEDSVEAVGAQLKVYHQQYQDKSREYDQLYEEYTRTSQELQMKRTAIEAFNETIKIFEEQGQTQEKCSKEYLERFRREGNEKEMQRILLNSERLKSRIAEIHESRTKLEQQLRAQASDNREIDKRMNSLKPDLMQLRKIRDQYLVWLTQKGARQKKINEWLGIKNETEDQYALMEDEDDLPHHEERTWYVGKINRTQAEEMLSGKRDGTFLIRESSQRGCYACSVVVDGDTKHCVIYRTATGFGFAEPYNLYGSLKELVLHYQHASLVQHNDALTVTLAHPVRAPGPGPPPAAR
YES1 SH2 domain: Tyrosine-protein kinase Yes, SH2 domain (YES1, Homo sapiens, UniProt P07947)
UniProt P07947, sequence (whole entry, looked up): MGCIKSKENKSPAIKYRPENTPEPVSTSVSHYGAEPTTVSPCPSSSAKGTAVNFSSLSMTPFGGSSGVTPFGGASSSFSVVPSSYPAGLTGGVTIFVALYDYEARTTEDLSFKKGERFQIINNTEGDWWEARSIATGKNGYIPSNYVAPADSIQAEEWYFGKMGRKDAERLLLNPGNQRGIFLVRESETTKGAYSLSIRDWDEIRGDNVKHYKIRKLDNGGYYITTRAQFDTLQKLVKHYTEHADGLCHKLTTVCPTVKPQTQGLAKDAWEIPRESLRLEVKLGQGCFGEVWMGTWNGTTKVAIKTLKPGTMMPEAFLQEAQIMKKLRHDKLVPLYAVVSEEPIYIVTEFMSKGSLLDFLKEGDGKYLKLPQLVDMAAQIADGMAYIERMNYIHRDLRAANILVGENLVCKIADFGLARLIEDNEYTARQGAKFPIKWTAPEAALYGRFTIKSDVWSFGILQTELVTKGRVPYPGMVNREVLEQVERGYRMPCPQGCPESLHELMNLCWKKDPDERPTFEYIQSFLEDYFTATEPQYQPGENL
PRT1: E3 ubiquitin-protein ligase PRT1 (PRT1, Arabidopsis thaliana, UniProt Q8LBL5)
UniProt Q8LBL5, sequence (whole entry, looked up): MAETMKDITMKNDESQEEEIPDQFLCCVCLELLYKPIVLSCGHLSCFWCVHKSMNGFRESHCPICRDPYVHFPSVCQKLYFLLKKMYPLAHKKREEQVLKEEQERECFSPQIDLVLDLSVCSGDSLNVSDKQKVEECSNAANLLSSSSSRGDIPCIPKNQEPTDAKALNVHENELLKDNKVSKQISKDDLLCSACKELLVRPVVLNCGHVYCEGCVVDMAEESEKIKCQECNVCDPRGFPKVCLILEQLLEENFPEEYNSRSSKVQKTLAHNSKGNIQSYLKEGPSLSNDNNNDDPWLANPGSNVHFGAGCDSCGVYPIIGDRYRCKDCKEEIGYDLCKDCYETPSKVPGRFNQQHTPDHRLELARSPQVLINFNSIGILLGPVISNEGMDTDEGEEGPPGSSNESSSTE
BLK SH2 domain: Tyrosine-protein kinase Blk, SH2 domain (BLK, Homo sapiens, UniProt P51451)
UniProt P51451, sequence (whole entry, looked up): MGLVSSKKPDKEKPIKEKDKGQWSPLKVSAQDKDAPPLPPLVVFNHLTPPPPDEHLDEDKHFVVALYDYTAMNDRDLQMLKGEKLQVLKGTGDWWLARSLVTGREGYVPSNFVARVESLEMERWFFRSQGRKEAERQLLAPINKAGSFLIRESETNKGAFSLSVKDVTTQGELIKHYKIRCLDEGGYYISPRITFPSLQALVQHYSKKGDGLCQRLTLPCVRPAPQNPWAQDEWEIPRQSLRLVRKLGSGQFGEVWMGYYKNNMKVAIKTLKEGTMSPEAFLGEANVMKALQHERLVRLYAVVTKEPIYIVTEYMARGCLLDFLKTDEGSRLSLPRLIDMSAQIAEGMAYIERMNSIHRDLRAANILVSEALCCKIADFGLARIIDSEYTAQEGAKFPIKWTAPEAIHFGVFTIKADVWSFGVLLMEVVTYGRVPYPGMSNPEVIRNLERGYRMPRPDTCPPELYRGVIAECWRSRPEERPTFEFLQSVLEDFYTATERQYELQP
mexR: Multidrug resistance operon repressor (mexR, Pseudomonas aeruginosa, UniProt P52003)
UniProt P52003, sequence (whole entry, looked up): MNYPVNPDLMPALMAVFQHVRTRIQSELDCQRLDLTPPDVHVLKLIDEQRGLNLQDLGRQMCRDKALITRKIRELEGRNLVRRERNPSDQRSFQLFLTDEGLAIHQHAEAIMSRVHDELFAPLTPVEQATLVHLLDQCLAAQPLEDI
UniProt P21553, sequence (whole entry, unmodified, looked up): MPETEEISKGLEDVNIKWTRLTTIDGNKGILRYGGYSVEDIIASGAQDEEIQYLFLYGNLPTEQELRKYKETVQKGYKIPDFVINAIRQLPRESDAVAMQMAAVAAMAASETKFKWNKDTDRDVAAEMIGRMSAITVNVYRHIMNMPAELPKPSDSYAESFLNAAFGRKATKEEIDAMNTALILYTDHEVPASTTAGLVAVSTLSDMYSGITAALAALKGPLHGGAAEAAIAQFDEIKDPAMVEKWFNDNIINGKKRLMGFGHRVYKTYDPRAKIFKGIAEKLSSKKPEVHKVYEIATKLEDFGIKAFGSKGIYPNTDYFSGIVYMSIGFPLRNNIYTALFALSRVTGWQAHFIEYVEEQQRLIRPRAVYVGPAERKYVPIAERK
UniProt P53779, sequence (whole entry, looked up): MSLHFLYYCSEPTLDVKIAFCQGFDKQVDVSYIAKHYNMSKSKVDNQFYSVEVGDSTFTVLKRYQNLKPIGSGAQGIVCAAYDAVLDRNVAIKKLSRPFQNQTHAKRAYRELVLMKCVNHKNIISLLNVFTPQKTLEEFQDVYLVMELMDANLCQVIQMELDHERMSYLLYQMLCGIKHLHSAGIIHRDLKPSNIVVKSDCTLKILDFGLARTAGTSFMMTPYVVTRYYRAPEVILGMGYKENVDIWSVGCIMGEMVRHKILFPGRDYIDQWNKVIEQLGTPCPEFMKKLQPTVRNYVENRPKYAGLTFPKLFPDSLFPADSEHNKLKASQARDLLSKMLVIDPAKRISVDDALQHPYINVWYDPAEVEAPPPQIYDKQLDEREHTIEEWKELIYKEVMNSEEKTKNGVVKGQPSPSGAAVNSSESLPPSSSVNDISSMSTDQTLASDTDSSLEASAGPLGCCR
UniProt Q9EP73, sequence (whole entry, looked up): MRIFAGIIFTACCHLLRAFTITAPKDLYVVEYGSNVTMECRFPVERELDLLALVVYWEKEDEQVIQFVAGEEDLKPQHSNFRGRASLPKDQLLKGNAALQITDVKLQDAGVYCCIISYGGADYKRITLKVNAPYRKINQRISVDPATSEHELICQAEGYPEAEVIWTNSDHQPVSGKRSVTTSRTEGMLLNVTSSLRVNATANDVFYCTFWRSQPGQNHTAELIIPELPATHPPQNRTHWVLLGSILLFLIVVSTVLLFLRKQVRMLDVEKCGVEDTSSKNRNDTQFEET
UniProt P40874, sequence (whole entry, looked up): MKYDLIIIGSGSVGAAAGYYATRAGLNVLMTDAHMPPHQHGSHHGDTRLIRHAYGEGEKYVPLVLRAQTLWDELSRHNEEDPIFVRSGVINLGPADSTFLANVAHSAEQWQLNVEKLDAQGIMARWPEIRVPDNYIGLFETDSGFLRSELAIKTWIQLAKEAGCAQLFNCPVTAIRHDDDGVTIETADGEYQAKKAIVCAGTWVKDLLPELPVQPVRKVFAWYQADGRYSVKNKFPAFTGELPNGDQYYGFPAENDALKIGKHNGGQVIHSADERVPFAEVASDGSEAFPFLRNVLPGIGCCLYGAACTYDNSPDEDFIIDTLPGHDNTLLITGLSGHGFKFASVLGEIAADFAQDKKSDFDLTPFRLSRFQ
UniProt P03023, sequence (whole entry, looked up): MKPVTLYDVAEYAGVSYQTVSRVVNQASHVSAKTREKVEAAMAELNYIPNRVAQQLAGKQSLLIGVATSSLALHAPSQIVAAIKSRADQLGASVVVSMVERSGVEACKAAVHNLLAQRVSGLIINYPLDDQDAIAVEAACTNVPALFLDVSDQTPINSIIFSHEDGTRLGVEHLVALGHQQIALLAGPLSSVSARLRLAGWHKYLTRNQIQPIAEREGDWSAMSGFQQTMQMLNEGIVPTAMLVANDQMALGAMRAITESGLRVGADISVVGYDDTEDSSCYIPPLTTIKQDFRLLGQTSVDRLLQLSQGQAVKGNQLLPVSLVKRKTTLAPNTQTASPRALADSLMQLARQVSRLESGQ
UniProt Q70CQ1, sequence (whole entry, looked up): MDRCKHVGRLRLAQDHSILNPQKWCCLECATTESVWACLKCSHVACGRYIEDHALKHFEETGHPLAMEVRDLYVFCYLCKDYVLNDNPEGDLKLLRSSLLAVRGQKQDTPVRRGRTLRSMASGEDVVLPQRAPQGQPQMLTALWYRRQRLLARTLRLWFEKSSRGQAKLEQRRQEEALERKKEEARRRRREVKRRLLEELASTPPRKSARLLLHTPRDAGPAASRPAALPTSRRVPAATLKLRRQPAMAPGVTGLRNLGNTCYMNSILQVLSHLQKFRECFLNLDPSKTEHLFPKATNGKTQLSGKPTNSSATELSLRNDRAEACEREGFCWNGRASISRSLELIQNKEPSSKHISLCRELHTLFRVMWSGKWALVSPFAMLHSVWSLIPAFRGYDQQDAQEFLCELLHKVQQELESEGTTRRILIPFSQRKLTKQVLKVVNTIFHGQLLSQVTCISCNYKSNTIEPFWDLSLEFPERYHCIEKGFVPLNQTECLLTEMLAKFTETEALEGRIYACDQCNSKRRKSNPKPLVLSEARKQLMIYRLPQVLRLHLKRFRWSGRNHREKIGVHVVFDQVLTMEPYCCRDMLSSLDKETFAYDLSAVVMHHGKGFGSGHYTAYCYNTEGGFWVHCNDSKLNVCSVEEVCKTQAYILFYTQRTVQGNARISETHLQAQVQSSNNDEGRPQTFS

Structure (SMILES) | target | test | test system | setting | Kd
CSCC[C@H](NC(=O)[C@H](Cc1ccc(OP(=O)(O)O)cc1)NC(=O)CNC(=O)CNC(=O)[C@H](CC(=O)O)NC(=O)[C@H](CO)NC(=O)[C@H](CCC(=O)O)NC(=O)CNC(=O)[C@@H](NC(=O)[C@H](CC(C)C)NC(=O)[C@H](CO)NC(=O)c1ccc2c(c1)C(=O)OC21c2ccc(N(C)C)cc2Oc2cc(N(C)C)ccc21)[C@@H](C)O)C(=O)N[C@@H](CC(=O)O)C(=O)N[C@@H](CCSC)C(=O)N[C@@H](CO)C(=O)N[C@@H](CCCCN)C(=O)N[C@@H](CC(=O)O)C(=O)N[C@@H](CCC(=O)O)C(=O)N[C@@H](CC(=O)O)C(=O)O | Phosphatidylinositol 3-kinase regulatory subunit beta SH2 domain | binding |  |  | 0.165 µM
CC(C)S[C@@H]1O[C@H](CO)[C@H](O)[C@H](O)[C@H]1O | lacI (Escherichia coli, UniProt P03023) | binding, fluorescence titration |  | no operator DNA | 1.5 ± 0.2 µM
CC[C@H](C)[C@H](NC(=O)[C@H](Cc1ccc(O)cc1)NC(=O)[C@H](CCC(=O)O)NC(=O)[C@H](Cc1c[nH]cn1)NC(=O)CNC(=O)[C@H](CC(=O)O)NC(=O)[C@H](CO)NC(=O)[C@H](CO)NC(=O)[C@@H](NC(=O)c1ccc2c(c1)C(=O)OC21c2ccc(N(C)C)cc2Oc2cc(N(C)C)ccc21)C(C)C)C(=O)N[C@@H](Cc1ccc(OP(=O)(O)O)cc1)C(=O)N[C@H](C(=O)N[C@@H](CC(=O)O)C(=O)N1CCC[C@H]1C(=O)N[C@@H](CCSC)C(=O)N[C@@H](CCC(N)=O)C(=O)N[C@@H](CC(C)C)C(=O)N1CCC[C@H]1C(=O)N[C@@H](CC(=O)O)C(=O)O)C(C)C | YES1 SH2 domain | binding |  |  | 0.329 µM
Nc1ncnc2c1ncn2[C@@H]1O[C@H](COP(=O)(O)OP(=O)(O)NP(=O)(O)O)[C@@H](O)[C@H]1O | Cell cycle histidine kinase CckA, cytoplasmic region (Caulobacter vibrioides, UniProt Q9X688) | isothermal titration calorimetry | Caulobacter crescentus | 12 °C, with: without c-di-GMP | 10 µM and 9.7 µM
C[C@H](NC(=O)[C@@H](N)Cc1ccc(O)cc1)C(=O)N[C@@H](Cc1ccccc1)C(=O)O | PRT1 | ITC |  | pH 7.5, 25 °C | 3.43 ± 0.218 µM
CN[C@@H](Cc1c[nH]c2ccccc12)C(=O)O | N-methyl-L-tryptophan oxidase, oxidized (solA, Escherichia coli, UniProt P40874) | anaerobic stopped-flow |  | pH 8.0, 25 °C, reductive half-reaction, fast phase | 1170 ± 59 µM
CC[C@H](C)[C@H](NC(=O)[C@H](Cc1ccc(OP(=O)(O)O)cc1)NC(=O)[C@H](CCC(=O)O)NC(=O)[C@@H]1CCCN1C(=O)[C@@H](NC(=O)[C@@H]1CCCN1C(=O)[C@H](CC(C)C)NC(=O)[C@H](Cc1ccccc1)NC(=O)[C@@H](NC(=O)[C@H](CC(=O)O)NC(=O)[C@H](CC(=O)O)NC(=O)c1ccc2c(c1)C(=O)OC21c2ccc(N(C)C)cc2Oc2cc(N(C)C)ccc21)[C@@H](C)O)C(C)C)C(=O)N[C@@H](CC(N)=O)C(=O)N[C@@H](CCC(N)=O)C(=O)N[C@@H](CO)C(=O)N[C@H](C(=O)N1CCC[C@H]1C(=O)N[C@@H](CCCCN)C(=O)N[C@@H](CC(=O)O)C(=O)O)C(C)C | BLK SH2 domain | binding |  |  | 0.3 µM
CC[C@@H](C)[C@@H](NC(=O)[C@@H](Cc1ccc(O)cc1)NC(=O)[C@H]1CCCN1C(=O)[C@@H](CCCNC(=N)N)NC(=O)[C@H](N)Cc1c[nH]cn1)C(=O)N[C@H](C)C(=O)N[C@H](Cc1c[nH]cn1)C(=O)N[C@H](CCCNC(=N)N)C(=O)N[C@H](CCCCNC(=O)c1cccc(S(=O)(=O)F)c1)C(=O)N[C@H](Cc1ccc(O)cc1)C(=O)N[C@H](CO)C(=O)N[C@H](Cc1ccccc1)C(N)=O | Programmed cell death 1 ligand 1 (Cd274, Mus musculus, UniProt Q9EP73) | microscale thermophoresis |  | 6 h, His-tagged protein | 2.8 ± 3.3 µM
Nc1cc2nc3ccccc3nc2cc1O | mexR | surface plasmon resonance |  | 25 °C | 17.7 µM
CC[C@H](CO)Nc1nc(NCc2ccc(-c3ccccn3)cc2)c2ncn(C(C)C)c2n1 | Dual specificity tyrosine-phosphorylation-regulated kinase 1A (DYRK1A, Homo sapiens, UniProt Q13627) | binding, competition affinity chromatography | SH-SY5Y cell extract |  | 3.3 µM
CC(=O)CCCNC(=O)CCNC(=O)[C@H](O)C(C)(C)COP(=O)(O)OP(=O)(O)OC[C@H]1O[C@@H](n2cnc3c(N)ncnc32)[C@H](O)[C@@H]1OP(=O)(O)O | gltA, with oxaloacetate (Thermoplasma acidophilum, UniProt P21553, W116F/W18F/W246F) | fluorescence titration |  | 20 °C, with: oxaloacetate | 8.9 ± 0.3 µM
CC[C@H](C)[C@H](NC(=O)[C@H](Cc1ccc(OP(=O)(O)O)cc1)NC(=O)[C@H](CCC(=O)O)NC(=O)[C@H](Cc1c[nH]cn1)NC(=O)CNC(=O)[C@H](CC(=O)O)NC(=O)[C@H](CO)NC(=O)[C@H](CO)NC(=O)[C@@H](NC(=O)[C@H](CO)NC(=O)[C@H](CCC(=O)O)NC(=O)c1ccc2c(c1)C(=O)OC21c2ccc(N(C)C)cc2Oc2cc(N(C)C)ccc21)C(C)C)C(=O)N[C@@H](Cc1ccc(O)cc1)C(=O)N[C@H](C(=O)N[C@@H](CC(=O)O)C(=O)N1CCC[C@H]1C(=O)N[C@@H](CCSC)C(=O)N[C@@H](CCC(N)=O)C(=O)N[C@@H](CC(=O)O)C(=O)O)C(C)C | BLK SH2 domain | binding |  |  | 0.573 µM
NCCCC[C@H](NC(=O)[C@@H](N)Cc1ccccc1)C(=O)N[C@@H](Cc1ccccc1)C(=O)O | PRT1 | ITC |  | pH 7.5, 25 °C | 3.48 ± 0.497 µM
O=C(O)CCCN1CC=C(c2ccccc2)CC1 | Ubiquitin carboxyl-terminal hydrolase 49, ZnF-UBD domain (USP49, Homo sapiens, UniProt Q70CQ1) |  |  |  | > 1000 µM
C[C@H](NC(=O)[C@@H](NC(=O)[C@H](CO)NC(=O)[C@H](Cc1c[nH]cn1)NC(=O)[C@@H]1CCCN1C(=O)[C@H](CC(=O)O)NC(=O)[C@H](CCC(N)=O)NC(=O)[C@H](Cc1ccc(OP(=O)(O)O)cc1)NC(=O)[C@H](Cc1c[nH]cn1)NC(=O)[C@@H]1CCCN1C(=O)[C@H](CC(=O)O)NC(=O)[C@H](CCCNC(=N)N)NC(=O)[C@H](CO)NC(=O)[C@@H]1CCCN1C(=O)[C@H](C)NC(=O)[C@@H]1CCCN1C(=O)[C@H](CC(N)=O)NC(=O)c1ccc2c(c1)C(=O)OC21c2ccc(N(C)C)cc2Oc2cc(N(C)C)ccc21)[C@@H](C)O)C(=O)N[C@@H](CC(=O)O)C(=O)O | YES1 SH2 domain | binding |  |  | 0.378 µM
Cn1c2cccc(=O)c-2nc2ccccc21 | mexR | microscale thermophoresis |  |  | 10.6 µM
CSCC[C@H](NC(=O)[C@H](CC(=O)O)NC(=O)c1ccc2c(c1)C(=O)OC21c2ccc(N(C)C)cc2Oc2cc(N(C)C)ccc21)C(=O)N[C@@H](CO)C(=O)N[C@@H](CCCCN)C(=O)N[C@@H](CC(=O)O)C(=O)N[C@@H](CCC(=O)O)C(=O)N[C@@H](CO)C(=O)N[C@H](C(=O)N[C@@H](CC(=O)O)C(=O)N[C@@H](Cc1ccc(OP(=O)(O)O)cc1)C(=O)N[C@H](C(=O)N1CCC[C@H]1C(=O)N[C@@H](CCSC)C(=O)N[C@@H](CC(C)C)C(=O)N[C@@H](CC(=O)O)C(=O)N[C@@H](CCSC)C(=O)N[C@@H](CCCCN)C(=O)N[C@@H](CC(=O)O)C(=O)O)C(C)C)C(C)C | Phosphatidylinositol 3-kinase regulatory subunit beta SH2 domain | binding |  |  | 0.01 µM
O=C(Nc1nncs1)C(F)(F)Br | Mitogen-activated protein kinase 10 (MAPK10, Homo sapiens, UniProt P53779) |  |  | pH 7.4 | 318 µM

Some of these lines once more:
Structure (SMILES) | target | test | test system | setting | Kd
NCCCC[C@H](NC(=O)[C@@H](N)Cc1ccccc1)C(=O)N[C@@H](Cc1ccccc1)C(=O)O | PRT1 | ITC |  | pH 7.5, 25 °C | 3.48 ± 0.497 µM
O=C(O)CCCN1CC=C(c2ccccc2)CC1 | Ubiquitin carboxyl-terminal hydrolase 49, ZnF-UBD domain (USP49, Homo sapiens, UniProt Q70CQ1) |  |  |  | > 1000 µM
